Results of several laboratories.
Numbers after ± are the reported error.

SMILES	test system	conditions	AUC(0-inf)
O=c1[nH]c(=O)c(Cc2cccc(C(F)(F)F)c2)c([C@H]2CC[C@H](c3ccccc3)CC2)[nH]1	human, male, plasma	oral, 150 mg 14C solution, geometric mean	4420 ng·h/mL
CN[C@H]1CN(c2ccc3c(=O)c(C(=O)O)cn(-c4nccs4)c3n2)C[C@@H]1OC	human patients, plasma	intravenous, 18 to 90 mg/m^2 weekly, day 1, cycle 1, mean, noncompartmental	31200 ng·h/mL
Cc1ccc(NC(=O)c2ccc(CN3CCN(C)CC3)cc2)cc1Nc1nccc(-c2cncc(-c3oncc3C)c2)n1	older healthy human adults, plasma	oral, 175 mg single dose, fed, mean	172000 ng·h/mL
CNC(=O)c1ccc(-c2cnc3ncc(Cc4ccc5ncccc5c4)n3n2)cc1F	healthy human subjects, plasma	oral, 400 mg, adjusted geometric mean, alone	11500 ng·h/mL
NS(=O)(=O)OC[C@@H]1C[C@@H](n2ccc3c(N[C@H]4CCc5ccccc54)ncnc32)C[C@@H]1O	human	intravenous, 20 mg/m^2 single dose, day 8, added: itraconazole	1130 ng·h/mL
CC(=O)Nc1ccc(OS(=O)(=O)O)cc1	healthy human volunteers	dose not given, day 1, acetaminophen alone	25100 ng·h/mL
C=C(C)[C@@H]1CC[C@]2(NCCN3CCS(=O)(=O)CC3)CC[C@]3(C)[C@H](CC[C@@H]4[C@@]5(C)CC=C(C6=CC[C@@](CF)(C(=O)O)CC6)C(C)(C)[C@@H]5CC[C@]43C)[C@@H]12	healthy human volunteers	oral, 200 mg, capsule, moderate-fat meal, arithmetic mean	39600 ng·h/mL
C/C=C1\NC(=O)[C@H]2CSSCC/C=C/[C@H](CC(=O)N[C@H](C(C)C)C(=O)N2)OC(=O)[C@H](C(C)C)NC1=O	human, plasma	i.v., 8 mg/m^2	2000 ± 1260 ng·h/mL
CO[C@H]1C[C@@H]2CC[C@@H](C)[C@@](O)(O2)C(=O)C(=O)N2CCCC[C@H]2C(=O)O[C@H]([C@H](C)C[C@@H]2CC[C@@H](O)[C@H](OC)C2)CC(=O)[C@H](C)/C=C(\C)[C@@H](O)[C@@H](OC)C(=O)[C@H](C)C[C@H](C)/C=C/C=C/C=C/1C	human, whole blood	oral, 15 mg, added: grapefruit juice	4360 ng·h/mL
CCOc1cc([C@@H](CS(C)(=O)=O)N2C(=O)c3cccc(NC(C)=O)c3C2=O)ccc1O[C@@H]1O[C@H](C(=O)O)[C@@H](O)[C@H](O)[C@H]1O	healthy human controls, plasma	oral, 30 mg apremilast, matched to mild impairment	3970 ng·h/mL
O=C(/C=C/c1cccc(S(=O)(=O)Nc2ccccc2)c1)NO	human severe liver dysfunction, plasma	intravenous, 400 mg/m^2, 30 min infusion, cycle 1 day -7	16900 ng·h/mL
C=CC(=O)N1C[C@H](Nc2ncnc3[nH]ccc23)CC[C@@H]1C	healthy human, plasma	oral, 50 mg single dose, added: no rifampicin	449 ng·h/mL
CCS(=O)(=O)N1CC(CC#N)(n2cc(-c3ncnc4[nH]ccc34)cn2)C1	healthy Chinese human subjects, plasma	oral, 10 mg, single dose, mean	780 ng·h/mL
Cc1ccc(C(=O)NC2CC2)cc1-n1ncc(C(=O)c2cccc(C#N)c2)c1N	healthy human	oral, dose not given, geometric mean, added: itraconazole 200 mg daily days 1-14	6890 ng·h/mL
CN1CC[C@H](c2c(O)cc(O)c3c(=O)cc(-c4ccccc4Cl)oc23)[C@H](O)C1	human patients, plasma	intravenous, 40 to 105 mg/m^2, range among patients	4.31 to 32.2 µM·h
O=C(CCCCCCC(=O)Nc1ccccc1)NO	human, cycle 1 day 2, plasma	oral, 400 mg, added: bortezomib	1120 ± 507 ng·h/mL
CCOc1cc([C@@H](CS(C)(=O)=O)N2C(=O)c3cccc(NC(C)=O)c3C2=O)ccc1OC	healthy human, both sexes, plasma	oral, 30 mg single dose, added: rifampicin multiple oral doses	869 ng·h/mL
CCOC(=O)C1=C[C@@H](OC(CC)CC)[C@H](NC(C)=O)[C@@H](N)C1	healthy Indian human, plasma	oral, 75 mg single, test capsule fed	155 ± 32 ng·h/mL
O=C(/C=C/c1cccc(S(=O)(=O)Nc2ccccc2)c1)NO[C@@H]1O[C@H](C(=O)O)[C@@H](O)[C@H](O)[C@H]1O	human mild liver dysfunction, plasma	intravenous, 400 mg/m^2, 30 min infusion, cycle 1 day -7, added: belinostat 400 mg/m^2 iv	307000 ng·h/mL
O=C1Nc2ccc(Cl)cc2[C@@](C#CC2CC2)(C(F)(F)F)O1	healthy human, serum	oral, 400 mg single dose, added: ezetimibe 10 mg	29700 ± 15400 ng·h/mL
CCCOc1ccc(S(=O)(=O)NCCC2CCCN2C)cc1-c1nc2c(CCC)nn(C)c2c(=O)[nH]1 (centres unmarked)	healthy male humans, plasma	oral, 200 mg, added: dapoxetine 60 mg	4560 ± 1250 ng·h/mL
CC(=O)O[C@H]1C(=O)[C@@]2(C)[C@H]([C@H](OC(=O)c3ccccc3)[C@]3(O)C[C@H](OC(=O)[C@H](O)[C@@H](NC(=O)c4ccccc4)c4ccccc4)C(C)=C1C3(C)C)[C@]1(OC(C)=O)CO[C@@H]1C[C@@H]2O	human, plasma	intravenous, 175 mg/m², cycle 1, no ritonavir, added: carboplatin	22.8 ± 8.1 µM·h

SMILES	test system	conditions	AUC(0-inf)
CCCC[C@H](NC(C)=O)C(=O)N[C@H]1CCC(=O)NC[C@@H](C(=O)N[C@@H](Cc2c[nH]c3ccccc23)C(N)=O)NC(=O)[C@H](CCCNC(=N)N)NC(=O)[C@@H](Cc2ccccc2)NC(=O)[C@H](Cc2c[nH]cn2)NC1=O	healthy human volunteers, plasma	subcutaneous, 1.0 mg once daily, day 7	57.2 ng·h/mL
C[C@@H](c1nc(-c2ccc(C#N)cc2)cs1)[C@](O)(Cn1cncn1)c1cc(F)ccc1F	human, both sexes, plasma	oral, 200 mg single dose, added: ketoconazole 200 mg BID	466000 ng·h/mL
CCN1CCN(Cc2ccc(Nc3ncc(F)c(-c4cc(F)c5nc(C)n(C(C)C)c5c4)n3)nc2)CC1	human patients, plasma	oral, 150 mg single, geometric mean	2960 ng·h/mL
COC(=O)c1ccc2c(c1)NC(=O)/C2=C(\Nc1ccc(N(C)C(=O)CN2CCN(C)CC2)cc1)c1ccccc1	healthy human controls matched to Child-Pugh B, plasma	oral, 100 mg single dose, fed, adjusted geometric mean	77.8 ng·h/mL
CCOCCn1c(C2CCN(CCc3ccc(C(C)(C)C(=O)O)cc3)CC2)nc2ccccc21	human, moderate renal insufficiency, plasma	oral, 20 mg, geometric LS mean	1360 ng·h/mL
C=CC(=O)Nc1cc(Nc2ncc(C(=O)OC(C)C)c(-c3cn(C)c4ccccc34)n2)c(OC)cc1N(C)CCN(C)C	human, plasma	oral, 160 mg, arithmetic mean, alone	1360 ng·h/mL
CN[C@@H]1COc2c(S(=O)(=O)NC(=O)Nc3c4c(cc5c3CCC5)CCC4)cnn2C1	human	oral, 600 mg, high-fat meal, mean	150000 ng·h/mL
COC(=O)N[C@H](C(=O)N1CCC[C@H]1c1nc(-c2ccc3c(c2)O[C@@H](c2ccccc2)n2c-3cc3cc(-c4c[nH]c([C@@H]5CCCN5C(=O)[C@@H](NC(=O)OC)C(C)C)n4)ccc32)c[nH]1)C(C)C	healthy adult humans, plasma	oral, 50 mg single dose, geometric mean, fasted, added: grazoprevir 100 mg fixed-dose combination	2.75 µM·h
COc1ccc(C[C@@H](C)[C@@H](C)Cc2ccc(OC)c(OC)c2)cc1OC	human	oral, 1200 mg	100 ng·h/mL
N#C[C@@H]1C[C@@H]2C[C@@H]2N1C(=O)[C@@H](N)C12CC3CC(CC(O)(C3)C1)C2	healthy human subjects, plasma	oral, 10 mg, day 10, geometric mean, added: diltiazem extended-release 360 mg	332 ng·h/mL
CC[C@H](C)[C@H](NC(=O)[C@H](Cc1ccccc1)NC(=O)[C@H](CCC(=O)O)NC(=O)[C@H](CCCCNC(=O)COCCOCCNC(=O)COCCOCCNC(=O)CC[C@H](NC(=O)CCCCCCCCCCCCCCCCC(=O)O)C(=O)O)NC(=O)[C@H](C)NC(=O)[C@H](C)NC(=O)[C@H](CCC(N)=O)NC(=O)CNC(=O)[C@H](CCC(=O)O)NC(=O)[C@H](CC(C)C)NC(=O)[C@H](Cc1ccc(O)cc1)NC(=O)[C@H](CO)NC(=O)[C@H](CO)NC(=O)[C@@H](NC(=O)[C@H](CC(=O)O)NC(=O)[C@H](CO)NC(=O)[C@@H](NC(=O)[C@H](Cc1ccccc1)NC(=O)[C@@H](NC(=O)CNC(=O)[C@H](CCC(=O)O)NC(=O)C(C)(C)NC(=O)[C@@H](N)Cc1cnc[nH]1)[C@@H](C)O)[C@@H](C)O)C(C)C)C(=O)N[C@@H](C)C(=O)N[C@@H](Cc1c[nH]c2ccccc12)C(=O)N[C@@H](CC(C)C)C(=O)N[C@H](C(=O)N[C@@H](CCCNC(=N)N)C(=O)NCC(=O)N[C@@H](CCCNC(=N)N)C(=O)NCC(=O)O)C(C)C	human, normal hepatic function, plasma	subcutaneous, 0.5 mg single dose	3.03 µM·h
CCOc1ccc(Cc2cc([C@]34OC[C@](CO)(O3)[C@@H](O)[C@H](O)[C@H]4O)ccc2Cl)cc1	human, plasma	oral, 15 mg, added: sitagliptin 100 mg	1480 ng·h/mL
CCc1nc(C(N)=O)c(Nc2ccc(N3CCC(N4CCN(C)CC4)CC3)c(OC)c2)nc1NC1CCOCC1	healthy humans, after high-fat breakfast, plasma	oral, 40 mg, single dose	1900 ng·h/mL
CC(C)[C@@H](CS(=O)(=O)C(C)C)N1C(=O)[C@@](C)(CC(=O)O)C[C@H](c2cccc(Cl)c2)[C@H]1c1ccc(Cl)cc1	human, plasma	oral, 60 mg, old tablet fasted	2870 ng·h/mL
CC(C)NC[C@@H](C(=O)N1CCN(c2ncnc3c2[C@H](C)C[C@H]3O)CC1)c1ccc(Cl)cc1	human, hepatic impairment Healthy (Child-Pugh), plasma	oral, 100 mg single, geometric mean	318 ng·h/mL
COCCCCn1c(C(=O)N(CC(C)C)[C@@H]2CNC[C@H](C(=O)N3CCOCC3)C2)nc2ccccc21	human, non-elderly, plasma	oral, 160 mg, multiple doses, day 1, mean	8600 ng·h/mL
CN(Cc1cnc2nc(N)nc(N)c2n1)c1ccc(C(=O)N[C@@H](CCC(=O)O)C(=O)O)cc1	human, plasma	oral, 15 mg, alone, mean	1600 ng·h/mL
CC(C)c1nc(N(C)S(C)(=O)=O)nc(-c2ccc(F)cc2)c1/C=C/[C@@H](O)C[C@@H](O)CC(=O)O	human, plasma	oral, 20 mg, geometric LS mean, added: EDP-305 10 mg	61.2 ng·h/mL
C=CC(=O)Nc1cc(Nc2ncc(C(=O)OC(C)C)c(-c3cn(C)c4ccccc34)n2)c(OC)cc1N(C)CCN(C)C	human, fasted	oral, 40 mg single dose, arithmetic mean	186 ng·h/mL
COc1cc2ncnc(Nc3ccc(F)c(Cl)c3)c2cc1NC(=O)/C=C/CN1CCCCC1	human, normal hepatic function (Child-Pugh), plasma	single dose, geometric mean, total drug	805 ng·h/mL
O=C(c1nc2n(n1)[C@H](c1ccccc1)C[C@@H]2F)C1CC1	humans, plasma	oral, 75 mg single dose, high-fat meal	13000 ng·h/mL
CO[C@H]1C[C@@H]2CC[C@@H](C)[C@@](O)(O2)C(=O)C(=O)N2CCCC[C@H]2C(=O)O[C@H]([C@H](C)C[C@@H]2CC[C@@H](OCCO)[C@H](OC)C2)CC(=O)[C@H](C)/C=C(\C)[C@@H](O)[C@@H](OC)C(=O)[C@H](C)C[C@H](C)/C=C/C=C/C=C/1C	human, plasma	oral, 30 mg, added: sunitinib 50 mg daily	1750 ng·h/mL
